Measured values collected from several papers.
± gives the spread as reported.
DRD3: D(3) dopamine receptor (DRD3, Homo sapiens, UniProt P35462)
UniProt P35462, sequence (whole entry, looked up): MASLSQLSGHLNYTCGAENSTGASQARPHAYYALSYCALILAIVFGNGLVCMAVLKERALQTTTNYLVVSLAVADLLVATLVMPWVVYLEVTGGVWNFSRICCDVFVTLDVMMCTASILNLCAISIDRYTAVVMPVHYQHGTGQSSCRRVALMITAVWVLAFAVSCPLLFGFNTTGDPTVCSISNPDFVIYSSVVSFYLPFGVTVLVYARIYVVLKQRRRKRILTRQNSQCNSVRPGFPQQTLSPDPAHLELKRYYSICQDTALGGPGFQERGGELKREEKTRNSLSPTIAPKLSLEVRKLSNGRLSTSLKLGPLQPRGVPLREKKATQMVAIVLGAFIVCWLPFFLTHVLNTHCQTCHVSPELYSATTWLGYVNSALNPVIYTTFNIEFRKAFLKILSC
SLC10A1: Hepatic sodium/bile acid cotransporter (SLC10A1, Homo sapiens, UniProt Q14973)
UniProt Q14973, sequence (whole entry, looked up): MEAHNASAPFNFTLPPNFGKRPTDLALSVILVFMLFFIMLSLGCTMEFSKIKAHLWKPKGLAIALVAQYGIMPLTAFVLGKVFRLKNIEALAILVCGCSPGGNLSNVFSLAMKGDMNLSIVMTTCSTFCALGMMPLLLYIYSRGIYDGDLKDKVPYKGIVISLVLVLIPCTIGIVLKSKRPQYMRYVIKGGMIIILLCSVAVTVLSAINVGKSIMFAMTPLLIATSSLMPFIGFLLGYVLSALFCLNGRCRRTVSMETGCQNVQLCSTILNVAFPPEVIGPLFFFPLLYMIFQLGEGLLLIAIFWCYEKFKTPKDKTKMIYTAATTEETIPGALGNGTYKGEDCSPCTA
ESR1: Estrogen receptor (ESR1, Homo sapiens, UniProt P03372)
UniProt P03372, sequence (whole entry, looked up): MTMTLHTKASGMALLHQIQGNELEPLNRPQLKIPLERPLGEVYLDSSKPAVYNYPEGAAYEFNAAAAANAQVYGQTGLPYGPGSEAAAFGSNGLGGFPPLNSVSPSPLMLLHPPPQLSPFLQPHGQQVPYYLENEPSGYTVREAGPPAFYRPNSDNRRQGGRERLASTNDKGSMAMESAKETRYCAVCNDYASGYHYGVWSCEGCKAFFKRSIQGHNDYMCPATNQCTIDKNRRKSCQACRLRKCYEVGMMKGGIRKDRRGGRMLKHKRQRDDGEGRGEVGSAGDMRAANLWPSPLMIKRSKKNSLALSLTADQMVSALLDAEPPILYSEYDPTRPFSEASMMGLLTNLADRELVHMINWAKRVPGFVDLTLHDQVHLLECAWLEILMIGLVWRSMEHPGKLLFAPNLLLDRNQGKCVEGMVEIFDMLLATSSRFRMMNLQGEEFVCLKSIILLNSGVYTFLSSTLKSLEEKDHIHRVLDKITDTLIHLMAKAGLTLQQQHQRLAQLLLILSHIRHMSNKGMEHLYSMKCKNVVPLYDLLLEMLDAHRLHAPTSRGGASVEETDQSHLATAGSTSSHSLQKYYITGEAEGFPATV
CDK2: Cyclin-dependent kinase 2 (CDK2, Homo sapiens, UniProt P24941)
CDK2 with cyclin A: Cyclin-dependent kinase 2, with cyclin A (CDK2, Homo sapiens, UniProt P24941)

Compound = Cc1[nH]c(C)c(S(=O)(=O)Nc2ccc(C(F)(F)F)c(Cl)c2)c1C(=O)N1CCC(C)(C)C1; target = DRD3; test = β-arrestin recruitment, antagonist, PathHunter; setting = added: dopamine EC80; measurement = IC50; result = > 100 µM
Compound = CCC1(C)CC(=O)NC1=O (stereo not shown); target = SLC10A1; test = taurocholate uptake, inhibitor; test system = NTCP-expressing HEK293; setting = added: 10 µM taurocholate; measurement = Ki; result = 513 ± 169 µM
Compound = O=c1c(O[C@@H]2O[C@H](CO)[C@@H](O)[C@H](O)[C@H]2O)c(-c2ccc(O)c(O)c2)oc2cc(O)cc(O)c12; target = ESR1; test = array formation, agonist; test system = ERα-GFP PRL-HeLa; setting = 1 h; measurement = EC50; result = 1.15 µM
Compound = CCCN(CCC)S(=O)(=O)c1ccc(C(=O)O)cc1; target = SLC10A1; test = taurocholate uptake, inhibitor; test system = NTCP-expressing HEK293; setting = added: 10 µM taurocholate; measurement = Ki; result = 435 ± 114 µM
Compound = CC(=O)c1cccc(NC(=O)CSc2nnc(-c3cc4ccccc4cc3O)n2C)c1; target = CDK2; test = binding; measurement = Kd; result = > 100 µM
Compound = CC(=O)N1CCN(c2ccc(OCC3COC(Cn4ccnc4)(c4ccc(Cl)cc4Cl)O3)cc2)CC1 (stereo not shown); target = SLC10A1; test = taurocholate uptake, inhibitor; test system = NTCP-expressing HEK293; setting = added: 10 µM taurocholate; measurement = Ki; result = 98.8 ± 12 µM
Compound = COc1cc(OC)c(NC(=O)CSc2nnc(-c3ccncc3)n2C)cc1Cl; target = CDK2 with cyclin A; measurement = Kd; result = > 100 µM
Compound = COc1cc(C(F)(F)F)c(Cl)cc1NS(=O)(=O)c1c(C)[nH]c(C)c1C(=O)N1CCC(F)(F)C1; target = DRD3; test = Go activation, antagonist, BRET; setting = added: dopamine; measurement = IC50; result = > 100 µM
Compound = COc1cc(NC(=O)CSc2nncn2C)cc(OC)c1OC; target = CDK2; test = binding; measurement = Kd; result = > 100 µM
Compound = Oc1cc(O)c2c(c1)O[C@H](c1cc(O)c(O)c(O)c1)[C@@H](O)C2; target = ESR1; test = array formation, agonist; test system = ERα-GFP PRL-HeLa; setting = 1 h; measurement = EC50; result = 6.7 µM
Compound = Cc1[nH]c(C)c(S(=O)(=O)Nc2ccc(C(F)(F)F)c(Cl)c2)c1C(=O)N1CCC(F)(F)C1; target = DRD3; test = β-arrestin recruitment, allosteric modulator, operational model of allostery; setting = added: pramipexole; measurement = Kb; result = 0.37 µM
Compound = CN1CCN(C(=O)CN(C)S(=O)(=O)c2ccc3ccccc3c2)CC1; target = CDK2 with cyclin A; measurement = Kd; result = > 100 µM
Compound = Cc1[nH]c(C)c(S(=O)(=O)Nc2ccc(B3OC(C)(C)C(C)(C)O3)cc2)c1C(=O)N1CCC(F)(F)C1; target = DRD3; test = β-arrestin recruitment, antagonist, PathHunter; setting = added: dopamine EC80; measurement = IC50; result = > 100 µM
Compound = O=C(O)[C@H]1O[C@@H](Oc2cc3oc(-c4ccccc4)cc(=O)c3c(O)c2O)[C@H](O)[C@@H](O)[C@@H]1O; target = ESR1; test = array formation, agonist; test system = ERα-GFP PRL-HeLa; setting = 1 h; measurement = EC50; result = 1.4 µM
Compound = COc1ccc2[nH]cc(CCNC(=O)Nc3ccc(Cl)c(Cl)c3)c2c1; target = CDK2; test = binding; measurement = Kd; result = > 100 µM
Compound = CCN(CC)C(=O)c1c(C)[nH]c(C)c1S(=O)(=O)Nc1ccc(C(F)(F)F)c(Cl)c1; target = DRD3; test = β-arrestin recruitment, antagonist, PathHunter; setting = added: dopamine EC80; measurement = IC50; result = > 100 µM
Compound = COc1ccc(-c2coc3cc(O[C@@H]4O[C@H](CO)[C@@H](O)[C@H](O)[C@H]4O)ccc3c2=O)cc1O; target = ESR1; test = array formation, agonist; test system = ERα-GFP PRL-HeLa; setting = 1 h; measurement = EC50; result = 1.42 µM
Compound = CC1(C)S[C@@H]2[C@H](NC(=O)[C@H](N)c3ccccc3)C(=O)N2[C@H]1C(=O)O; target = SLC10A1; test = taurocholate uptake, inhibitor; test system = NTCP-expressing HEK293; setting = added: 10 µM taurocholate; measurement = Ki; result = 182 ± 138 µM
Compound = COC(=O)[C@@H]1CCCN1C(=O)c1c(C)[nH]c(C)c1S(=O)(=O)Nc1ccc(C(F)(F)F)c(Cl)c1; target = DRD3; test = β-arrestin recruitment, antagonist, PathHunter; setting = added: dopamine EC80; measurement = IC50; result = > 100 µM

A few entries again:
Compound = COc1ccc(-c2coc3cc(O[C@@H]4O[C@H](CO)[C@@H](O)[C@H](O)[C@H]4O)ccc3c2=O)cc1O; target = ESR1; test = array formation, agonist; test system = ERα-GFP PRL-HeLa; setting = 1 h; measurement = EC50; result = 1.42 µM
